# Assay results pooled from the literature.
# “And” joins repeats or separate records; there may be more than shown.
# Target: DNA-dependent protein kinase catalytic subunit (PRKDC, Homo sapiens, UniProt P78527)
# Sequence of UniProt P78527 (whole entry, looked up): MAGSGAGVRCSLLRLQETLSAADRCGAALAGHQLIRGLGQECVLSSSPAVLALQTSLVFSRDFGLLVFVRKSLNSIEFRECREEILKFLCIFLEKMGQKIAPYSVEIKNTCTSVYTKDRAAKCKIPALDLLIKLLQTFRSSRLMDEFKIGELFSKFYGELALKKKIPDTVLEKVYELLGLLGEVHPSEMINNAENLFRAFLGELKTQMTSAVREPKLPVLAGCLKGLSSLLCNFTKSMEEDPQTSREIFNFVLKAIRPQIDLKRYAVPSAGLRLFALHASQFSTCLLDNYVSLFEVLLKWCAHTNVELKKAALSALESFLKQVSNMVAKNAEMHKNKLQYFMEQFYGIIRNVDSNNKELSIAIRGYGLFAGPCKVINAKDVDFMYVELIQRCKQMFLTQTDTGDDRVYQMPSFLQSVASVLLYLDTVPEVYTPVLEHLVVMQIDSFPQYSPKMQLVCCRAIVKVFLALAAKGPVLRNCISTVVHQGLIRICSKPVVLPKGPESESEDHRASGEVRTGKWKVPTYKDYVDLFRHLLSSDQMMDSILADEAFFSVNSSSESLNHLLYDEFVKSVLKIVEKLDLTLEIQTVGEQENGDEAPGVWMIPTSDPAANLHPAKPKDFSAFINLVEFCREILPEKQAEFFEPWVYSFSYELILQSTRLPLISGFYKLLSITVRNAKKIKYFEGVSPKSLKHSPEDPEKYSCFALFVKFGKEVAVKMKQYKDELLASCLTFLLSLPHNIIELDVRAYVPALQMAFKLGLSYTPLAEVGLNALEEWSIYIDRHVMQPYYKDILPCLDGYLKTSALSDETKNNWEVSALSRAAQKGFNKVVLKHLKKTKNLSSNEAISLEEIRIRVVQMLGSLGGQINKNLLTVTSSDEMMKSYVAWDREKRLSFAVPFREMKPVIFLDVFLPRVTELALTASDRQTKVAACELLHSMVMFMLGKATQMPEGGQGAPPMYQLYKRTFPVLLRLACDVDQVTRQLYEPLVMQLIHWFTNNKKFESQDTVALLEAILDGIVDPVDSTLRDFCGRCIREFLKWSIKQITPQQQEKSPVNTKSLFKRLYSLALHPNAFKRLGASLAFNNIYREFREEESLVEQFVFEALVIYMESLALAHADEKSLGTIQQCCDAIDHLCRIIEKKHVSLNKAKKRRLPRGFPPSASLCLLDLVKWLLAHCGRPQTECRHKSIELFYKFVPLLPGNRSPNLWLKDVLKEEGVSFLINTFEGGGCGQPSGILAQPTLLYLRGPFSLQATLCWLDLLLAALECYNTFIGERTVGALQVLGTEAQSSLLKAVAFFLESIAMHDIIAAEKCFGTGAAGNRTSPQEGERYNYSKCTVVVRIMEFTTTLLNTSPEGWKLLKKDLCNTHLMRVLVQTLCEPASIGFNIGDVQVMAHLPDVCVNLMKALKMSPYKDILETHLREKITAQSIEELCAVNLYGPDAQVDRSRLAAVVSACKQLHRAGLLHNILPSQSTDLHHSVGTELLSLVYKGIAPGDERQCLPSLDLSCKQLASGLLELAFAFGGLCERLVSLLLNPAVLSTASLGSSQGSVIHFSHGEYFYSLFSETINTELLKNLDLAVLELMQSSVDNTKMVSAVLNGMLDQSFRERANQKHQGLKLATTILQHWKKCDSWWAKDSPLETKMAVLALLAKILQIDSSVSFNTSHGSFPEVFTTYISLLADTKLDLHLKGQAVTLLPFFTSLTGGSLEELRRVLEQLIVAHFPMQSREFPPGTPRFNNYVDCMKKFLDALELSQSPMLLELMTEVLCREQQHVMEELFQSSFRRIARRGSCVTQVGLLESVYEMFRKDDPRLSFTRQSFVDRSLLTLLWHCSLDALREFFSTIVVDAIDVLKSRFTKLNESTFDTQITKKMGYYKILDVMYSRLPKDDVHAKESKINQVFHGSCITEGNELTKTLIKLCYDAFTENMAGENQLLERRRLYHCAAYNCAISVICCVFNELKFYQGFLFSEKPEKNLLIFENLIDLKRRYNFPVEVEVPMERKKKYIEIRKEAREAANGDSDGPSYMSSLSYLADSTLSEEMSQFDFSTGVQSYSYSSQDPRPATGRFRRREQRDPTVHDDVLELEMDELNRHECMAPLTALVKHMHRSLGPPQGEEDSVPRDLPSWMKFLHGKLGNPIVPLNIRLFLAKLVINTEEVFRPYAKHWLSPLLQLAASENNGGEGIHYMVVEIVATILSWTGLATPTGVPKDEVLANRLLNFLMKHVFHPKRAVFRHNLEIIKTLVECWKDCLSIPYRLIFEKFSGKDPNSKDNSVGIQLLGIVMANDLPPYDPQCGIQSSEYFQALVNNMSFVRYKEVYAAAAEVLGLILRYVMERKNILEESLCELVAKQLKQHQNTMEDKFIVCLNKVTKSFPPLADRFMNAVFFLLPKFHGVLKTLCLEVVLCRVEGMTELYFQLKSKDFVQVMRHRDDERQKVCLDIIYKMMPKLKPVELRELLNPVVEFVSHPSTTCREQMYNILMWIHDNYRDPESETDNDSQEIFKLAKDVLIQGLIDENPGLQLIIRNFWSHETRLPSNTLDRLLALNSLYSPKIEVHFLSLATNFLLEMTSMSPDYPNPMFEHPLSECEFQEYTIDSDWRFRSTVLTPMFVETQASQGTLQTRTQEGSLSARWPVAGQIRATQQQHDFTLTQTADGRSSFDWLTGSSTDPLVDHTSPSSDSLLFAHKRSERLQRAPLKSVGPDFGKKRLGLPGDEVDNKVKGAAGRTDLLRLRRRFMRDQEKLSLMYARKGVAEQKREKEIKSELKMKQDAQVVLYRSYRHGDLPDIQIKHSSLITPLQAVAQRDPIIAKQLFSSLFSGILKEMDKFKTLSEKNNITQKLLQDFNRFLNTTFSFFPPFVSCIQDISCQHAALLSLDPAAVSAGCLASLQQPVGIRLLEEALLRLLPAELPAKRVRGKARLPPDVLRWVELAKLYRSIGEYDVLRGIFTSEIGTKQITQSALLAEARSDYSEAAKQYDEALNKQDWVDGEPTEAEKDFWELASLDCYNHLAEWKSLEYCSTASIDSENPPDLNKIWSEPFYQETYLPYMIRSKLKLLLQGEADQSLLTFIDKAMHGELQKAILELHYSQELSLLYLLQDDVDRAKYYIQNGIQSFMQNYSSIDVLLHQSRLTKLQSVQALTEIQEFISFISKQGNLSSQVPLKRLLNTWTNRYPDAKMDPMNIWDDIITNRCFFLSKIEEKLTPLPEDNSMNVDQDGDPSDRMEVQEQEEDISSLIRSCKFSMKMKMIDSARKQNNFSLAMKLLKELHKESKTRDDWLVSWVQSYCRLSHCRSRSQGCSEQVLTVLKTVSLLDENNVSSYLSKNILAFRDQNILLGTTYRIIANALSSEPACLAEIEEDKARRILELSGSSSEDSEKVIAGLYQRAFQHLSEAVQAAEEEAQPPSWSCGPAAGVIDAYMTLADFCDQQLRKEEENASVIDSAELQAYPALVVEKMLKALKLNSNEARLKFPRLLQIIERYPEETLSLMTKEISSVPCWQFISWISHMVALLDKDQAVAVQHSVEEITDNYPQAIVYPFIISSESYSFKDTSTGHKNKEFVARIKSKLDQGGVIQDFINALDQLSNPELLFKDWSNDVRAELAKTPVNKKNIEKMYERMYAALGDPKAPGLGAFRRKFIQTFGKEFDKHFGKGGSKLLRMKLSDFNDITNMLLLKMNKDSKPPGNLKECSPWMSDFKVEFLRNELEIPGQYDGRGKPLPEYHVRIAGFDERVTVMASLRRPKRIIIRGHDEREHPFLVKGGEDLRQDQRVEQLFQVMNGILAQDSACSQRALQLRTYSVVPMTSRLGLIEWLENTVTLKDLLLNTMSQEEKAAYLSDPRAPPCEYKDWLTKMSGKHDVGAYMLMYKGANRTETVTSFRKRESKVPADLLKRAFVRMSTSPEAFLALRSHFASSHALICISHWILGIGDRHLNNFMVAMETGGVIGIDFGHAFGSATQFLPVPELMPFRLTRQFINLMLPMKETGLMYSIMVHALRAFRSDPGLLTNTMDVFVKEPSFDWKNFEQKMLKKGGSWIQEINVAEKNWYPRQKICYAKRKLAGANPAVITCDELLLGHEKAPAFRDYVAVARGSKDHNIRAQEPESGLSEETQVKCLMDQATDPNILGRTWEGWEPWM
SMILES,assay,test system,setting,how to read,measurement,value
CC(=O)N1c2ccc(-c3ccc(CNC(=O)c4cn5cc(-c6cnc(N)nc6)nc(N6CCOCC6)c5n4)cc3)cc2CC[C@@H]1C,"enzyme activity, inhibitor, radiometric",,1 µM,,remaining activity,37%
Cc1nc2c(F)cc(-c3nc(Nc4ccc(CNC(=O)CCCCCCC(=O)NO)cc4)ncc3F)cc2n1C(C)C,"enzyme activity, inhibitor",,1 µM,,inhibition,6%
CS(=O)(=O)Nc1cccc(-c2csc3cnc(Nc4ccc(N5CCN(CCCCCOc6cccc7c6C(=O)N(C6CCC(=O)NC6=O)C7=O)CC5)cc4)nc23)c1 (stereo not drawn),"probe labelling, inhibitor, KiNativ chemoproteomics",MOLT-4,1 µM,,inhibition,-8.55%
O=C(Cc1ccc(OCc2ccccc2)cc1)NC1(C(=O)O)CCN(C(=O)c2ccc(-c3cccc(Cl)c3)cc2)CC1,"enzyme activity, inhibitor",,10 µM,,activity vs control,88%
N[C@H]1CC[C@H](Nc2nccc(-c3cccnc3Oc3ccc(NC(=O)NC4CC4)c4ccccc34)n2)CC1,kinobead competition pulldown,HEK293/HCT116 lysate mixture,"10 µM, 1 h, 4 °C",lower = stronger competition,log2 LFQ intensity,28.5 and 28.4
CCn1cc(C(=O)O)c(=O)c2c(N)c(F)c(NC3CCCCC3)cc21,kinase activity,,"0.1 µM, with: ATP at Km",,inhibition,11.2%
CN1CC[C@@H](COc2cnc(C#N)cc2-c2ccn3nc(NC(=O)C4CC4)cc3c2)C1,"enzyme activity, inhibitor",,1 µM,,inhibition,-3%
CN1CCN(Cc2ccc(-c3ccc(CO[C@H]4CCC[C@@H]4NC(=O)c4cc(-c5cnn(C)c5)cnc4N)cc3)cc2)CC1,"enzyme activity, inhibitor",,0.1 µM,,inhibition,18%
C[C@H]1CN(C(=O)c2cn(-c3ccnc(N)n3)c3cc(C#CC4(O)CCCCC4)ccc23)CCN1,"enzyme activity, inhibitor, FRET",,1 µM,,inhibition,-1%

# Repeated from above:
SMILES,assay,test system,setting,how to read,measurement,value
O=C(Cc1ccc(OCc2ccccc2)cc1)NC1(C(=O)O)CCN(C(=O)c2ccc(-c3cccc(Cl)c3)cc2)CC1,"enzyme activity, inhibitor",,10 µM,,activity vs control,88%
